Measurements from different studies.
Each numbered part is a random draw from the data of one study; scales do not carry over between parts. ± marks the error that the study gave.
Sequence of UniProt Q96L34 (whole entry, looked up): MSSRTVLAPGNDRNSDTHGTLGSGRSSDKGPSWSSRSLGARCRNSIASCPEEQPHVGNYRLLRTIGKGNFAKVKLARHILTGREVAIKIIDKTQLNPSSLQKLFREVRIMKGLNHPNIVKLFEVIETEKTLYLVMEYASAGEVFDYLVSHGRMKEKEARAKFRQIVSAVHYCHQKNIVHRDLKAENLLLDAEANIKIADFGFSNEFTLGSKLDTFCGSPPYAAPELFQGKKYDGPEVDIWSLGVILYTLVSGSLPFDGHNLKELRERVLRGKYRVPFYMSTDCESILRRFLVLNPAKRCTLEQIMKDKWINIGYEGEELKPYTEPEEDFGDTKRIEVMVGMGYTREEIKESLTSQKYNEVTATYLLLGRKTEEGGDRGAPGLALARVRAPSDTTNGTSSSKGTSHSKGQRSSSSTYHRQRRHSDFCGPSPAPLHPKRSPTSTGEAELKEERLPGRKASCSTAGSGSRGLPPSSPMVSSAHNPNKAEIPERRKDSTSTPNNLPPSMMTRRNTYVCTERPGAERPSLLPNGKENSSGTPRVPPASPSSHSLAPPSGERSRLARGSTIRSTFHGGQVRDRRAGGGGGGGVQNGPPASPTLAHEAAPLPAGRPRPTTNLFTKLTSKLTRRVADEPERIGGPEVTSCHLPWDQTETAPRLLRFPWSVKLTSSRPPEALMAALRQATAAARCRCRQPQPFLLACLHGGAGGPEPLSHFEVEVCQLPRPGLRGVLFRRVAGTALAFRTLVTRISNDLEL
Sequence of UniProt Q5BJF2 (whole entry, looked up): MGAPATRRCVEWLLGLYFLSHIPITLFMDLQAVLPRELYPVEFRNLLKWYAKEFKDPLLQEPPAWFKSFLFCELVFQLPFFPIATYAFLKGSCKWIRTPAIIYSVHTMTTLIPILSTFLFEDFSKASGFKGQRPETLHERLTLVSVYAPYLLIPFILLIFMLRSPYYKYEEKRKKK
Sequence of UniProt O75914 (whole entry, looked up): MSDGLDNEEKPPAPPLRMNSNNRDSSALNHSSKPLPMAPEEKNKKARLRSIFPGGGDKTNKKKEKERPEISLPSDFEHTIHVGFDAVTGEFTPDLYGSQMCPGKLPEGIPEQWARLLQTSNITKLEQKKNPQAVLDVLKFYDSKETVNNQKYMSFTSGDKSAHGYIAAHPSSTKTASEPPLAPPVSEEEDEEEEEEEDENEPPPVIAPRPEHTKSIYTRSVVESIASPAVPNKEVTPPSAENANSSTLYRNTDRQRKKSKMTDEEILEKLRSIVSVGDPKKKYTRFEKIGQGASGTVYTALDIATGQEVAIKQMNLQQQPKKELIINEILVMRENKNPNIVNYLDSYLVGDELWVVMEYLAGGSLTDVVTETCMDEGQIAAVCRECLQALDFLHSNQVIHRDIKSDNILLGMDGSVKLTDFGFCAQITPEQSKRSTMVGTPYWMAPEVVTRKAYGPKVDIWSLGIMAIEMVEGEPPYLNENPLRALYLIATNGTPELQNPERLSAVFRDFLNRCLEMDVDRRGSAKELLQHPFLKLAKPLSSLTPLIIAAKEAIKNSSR
Sequence of UniProt P06493 (whole entry, looked up): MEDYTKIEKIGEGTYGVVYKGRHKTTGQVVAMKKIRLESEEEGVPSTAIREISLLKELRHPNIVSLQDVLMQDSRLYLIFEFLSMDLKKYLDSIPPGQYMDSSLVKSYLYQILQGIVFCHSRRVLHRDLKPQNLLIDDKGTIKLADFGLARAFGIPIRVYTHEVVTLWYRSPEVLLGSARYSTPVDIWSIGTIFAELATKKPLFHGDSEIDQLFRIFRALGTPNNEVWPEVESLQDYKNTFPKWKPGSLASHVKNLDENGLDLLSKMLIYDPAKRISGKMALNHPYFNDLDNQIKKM
Sequence of UniProt P42681 (whole entry, looked up): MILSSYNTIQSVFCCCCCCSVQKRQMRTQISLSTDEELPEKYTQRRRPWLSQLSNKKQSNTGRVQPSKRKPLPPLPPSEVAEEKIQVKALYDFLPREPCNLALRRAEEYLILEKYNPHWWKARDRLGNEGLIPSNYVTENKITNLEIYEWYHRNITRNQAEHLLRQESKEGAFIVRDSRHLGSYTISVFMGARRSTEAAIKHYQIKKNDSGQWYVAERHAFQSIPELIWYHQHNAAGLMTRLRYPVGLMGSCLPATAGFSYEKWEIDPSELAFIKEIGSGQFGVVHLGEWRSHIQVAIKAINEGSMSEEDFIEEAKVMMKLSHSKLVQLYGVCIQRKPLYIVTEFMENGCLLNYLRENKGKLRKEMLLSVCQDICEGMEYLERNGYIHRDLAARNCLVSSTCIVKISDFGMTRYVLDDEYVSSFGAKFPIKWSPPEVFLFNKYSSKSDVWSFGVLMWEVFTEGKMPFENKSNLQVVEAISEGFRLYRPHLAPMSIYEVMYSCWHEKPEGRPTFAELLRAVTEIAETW
Sequence of UniProt P31751 (whole entry, looked up): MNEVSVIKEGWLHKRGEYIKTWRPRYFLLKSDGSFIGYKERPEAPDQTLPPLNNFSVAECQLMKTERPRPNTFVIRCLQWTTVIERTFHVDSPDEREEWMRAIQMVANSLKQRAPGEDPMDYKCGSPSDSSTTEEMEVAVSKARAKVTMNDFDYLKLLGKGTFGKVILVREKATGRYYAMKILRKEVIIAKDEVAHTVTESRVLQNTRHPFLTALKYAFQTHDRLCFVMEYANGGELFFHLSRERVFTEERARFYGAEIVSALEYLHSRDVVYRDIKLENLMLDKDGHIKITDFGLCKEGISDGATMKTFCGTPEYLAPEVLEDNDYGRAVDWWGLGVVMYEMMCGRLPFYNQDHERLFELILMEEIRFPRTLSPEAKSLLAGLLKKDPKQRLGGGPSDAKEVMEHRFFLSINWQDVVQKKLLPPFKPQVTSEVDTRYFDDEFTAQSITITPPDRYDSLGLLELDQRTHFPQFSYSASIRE
Sequence of UniProt Q13237 (whole entry, looked up): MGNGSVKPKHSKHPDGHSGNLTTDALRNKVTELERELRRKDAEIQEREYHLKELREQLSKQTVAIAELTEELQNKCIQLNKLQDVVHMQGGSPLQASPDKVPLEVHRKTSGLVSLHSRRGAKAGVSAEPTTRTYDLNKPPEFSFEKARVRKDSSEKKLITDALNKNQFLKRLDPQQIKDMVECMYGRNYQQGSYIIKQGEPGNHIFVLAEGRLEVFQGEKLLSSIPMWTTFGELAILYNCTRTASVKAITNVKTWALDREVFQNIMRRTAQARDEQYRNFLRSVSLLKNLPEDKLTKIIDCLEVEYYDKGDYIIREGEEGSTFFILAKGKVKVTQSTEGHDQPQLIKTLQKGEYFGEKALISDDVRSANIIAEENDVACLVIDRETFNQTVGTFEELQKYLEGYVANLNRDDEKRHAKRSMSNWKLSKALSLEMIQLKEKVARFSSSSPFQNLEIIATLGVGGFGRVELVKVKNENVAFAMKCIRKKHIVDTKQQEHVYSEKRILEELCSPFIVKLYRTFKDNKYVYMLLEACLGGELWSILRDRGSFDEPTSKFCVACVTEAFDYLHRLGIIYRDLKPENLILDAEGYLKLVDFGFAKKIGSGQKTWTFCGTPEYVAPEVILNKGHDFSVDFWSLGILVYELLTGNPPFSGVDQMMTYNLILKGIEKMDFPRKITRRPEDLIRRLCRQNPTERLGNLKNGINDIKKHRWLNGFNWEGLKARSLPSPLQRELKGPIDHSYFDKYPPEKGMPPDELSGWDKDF
Sequence of UniProt Q9H4B4 (whole entry, looked up): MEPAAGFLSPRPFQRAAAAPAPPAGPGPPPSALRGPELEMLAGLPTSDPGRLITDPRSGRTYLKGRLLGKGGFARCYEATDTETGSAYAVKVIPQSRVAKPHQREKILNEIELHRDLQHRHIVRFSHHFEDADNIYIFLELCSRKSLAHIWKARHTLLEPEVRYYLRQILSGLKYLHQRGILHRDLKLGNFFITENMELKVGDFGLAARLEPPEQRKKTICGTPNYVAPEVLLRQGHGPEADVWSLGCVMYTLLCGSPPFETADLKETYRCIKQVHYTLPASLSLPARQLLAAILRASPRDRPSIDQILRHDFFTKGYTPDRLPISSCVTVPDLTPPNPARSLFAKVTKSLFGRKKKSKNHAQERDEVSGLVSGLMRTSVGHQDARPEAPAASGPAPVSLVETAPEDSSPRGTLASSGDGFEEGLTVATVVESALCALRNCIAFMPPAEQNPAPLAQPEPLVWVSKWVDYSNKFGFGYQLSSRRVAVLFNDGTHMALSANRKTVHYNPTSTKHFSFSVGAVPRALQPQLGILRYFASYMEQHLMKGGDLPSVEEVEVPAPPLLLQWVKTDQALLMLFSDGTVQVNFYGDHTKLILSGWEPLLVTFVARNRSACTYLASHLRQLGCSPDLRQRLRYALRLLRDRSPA
Sequence of UniProt P51956 (whole entry, looked up): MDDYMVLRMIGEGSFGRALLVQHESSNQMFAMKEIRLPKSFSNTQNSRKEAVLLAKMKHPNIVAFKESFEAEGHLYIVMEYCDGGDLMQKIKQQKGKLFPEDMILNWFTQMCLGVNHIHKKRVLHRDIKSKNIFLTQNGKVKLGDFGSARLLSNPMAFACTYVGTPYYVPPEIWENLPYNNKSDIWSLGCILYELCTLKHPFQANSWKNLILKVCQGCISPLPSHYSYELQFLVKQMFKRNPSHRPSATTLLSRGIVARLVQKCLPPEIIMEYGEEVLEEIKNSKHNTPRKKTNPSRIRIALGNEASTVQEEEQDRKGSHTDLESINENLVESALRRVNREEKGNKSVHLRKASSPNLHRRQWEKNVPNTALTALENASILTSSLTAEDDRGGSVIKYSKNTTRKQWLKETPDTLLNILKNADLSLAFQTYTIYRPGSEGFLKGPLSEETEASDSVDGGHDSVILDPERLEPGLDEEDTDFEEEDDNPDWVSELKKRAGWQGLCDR

Series 1
Structure (SMILES): Nc1nccc(-c2c(-c3ccc(F)cc3)ncn2C2CCNCC2)n1
Read-out: enzyme activity
Action: inhibitor
Tested at: 0.5 µM
Relative to: control
Measurement: remaining activity
Tyrosine-protein kinase TXK (TXK, Homo sapiens, UniProt P42681): 99.1%
Vascular endothelial growth factor receptor 2 (KDR, Homo sapiens, UniProt P35968): 102%
cGMP-dependent protein kinase 2 (PRKG2, Homo sapiens, UniProt Q13237): 97.2%
Calcium/calmodulin-dependent protein kinase type IV (CAMK4, Homo sapiens, UniProt Q16566): 103%
Cyclin-dependent kinase 1, with cyclin A (CDK1, Homo sapiens, UniProt P06493): 92.7%
Dual specificity protein kinase CLK4 (CLK4, Homo sapiens, UniProt Q9HAZ1): 96.9%
Serine/threonine-protein kinase Nek3 (NEK3, Homo sapiens, UniProt P51956): 99%
Serine/threonine-protein kinase PAK 3 (PAK3, Homo sapiens, UniProt O75914): 105%
Hepatocyte growth factor receptor (MET, Homo sapiens, UniProt P08581): 104%
RAC-beta serine/threonine-protein kinase (AKT2, Homo sapiens, UniProt P31751): 94.8%
MAP/microtubule affinity-regulating kinase 4 (MARK4, Homo sapiens, UniProt Q96L34): 97.4%
Serine/threonine-protein kinase PLK3 (PLK3, Homo sapiens, UniProt Q9H4B4): 97.8%
G protein-coupled receptor kinase 4 (GRK4, Homo sapiens, UniProt P32298): 96.9%

Series 2
Structure (SMILES): COc1cc(C(=O)N2CCC(N3CCN(C)CC3)CC2)ccc1Nc1ncc2c(n1)N(C)c1ccccc1C(=O)N2C
Read-out: kinase activity
Measurement: remaining activity
ERK8; 10 µM: 104 ± 6%
CSK; 1 µM: 70%
MINK1; 10 µM: 108 ± 7%
RIPK2; 10 µM: 101 ± 9%
CHK1; 10 µM: 96 ± 12%

Series 3
Target: Bromodomain-containing protein 4, BD1 (BRD4, Homo sapiens, UniProt O60885)
Read-out: acetyl-histone H4 peptide binding
Method: AlphaScreen displacement
Tested at: 50 µM
Measurement: inhibition
O=c1cc(-c2ccc(O)cc2)oc2cc(O)cc(O)c12.O=c1cc(-c2ccc(O)cc2)oc2cc(O)cc(O)c12: 31.8%
CCOC(=O)N1CCN(c2nc(N)nc3[nH]cnc23)CC1: 3.65%
Brc1ccc(-c2nc(-c3c[nH]c4ccccc34)[nH]c2-c2ccccc2)cc1: 82.2%
O=C(Nc1nnc(SCc2ccc(F)cc2)s1)c1ccc(F)cc1: 3.4%

Series 4
Organism: Sarcocystis neurona
Read-out: parasite growth
Tested at: 10 µM
Time: 96 h
Notes: first screen
Relative to: untreated
Measurement: log2 fold change
O=C(O)C[C@H](O)C[C@H](O)/C=C/c1c(C2CC2)nc2ccccc2c1-c1ccc(F)cc1: -0.33
CO/N=C(\C(=O)N[C@@H]1C(=O)N2C(C(=O)O)=C(COC(N)=O)CS[C@H]12)c1ccco1: 0.0107
CC1=NS(=O)(=O)c2cc(Cl)ccc2N1: 0.0187
CC(C)(C)NC(=O)[C@@H]1CN(Cc2cccnc2)CCN1C[C@@H](O)C[C@@H](Cc1ccccc1)C(=O)N[C@H]1c2ccccc2C[C@H]1O: 0.23
Cc1cc2c(s1)Nc1ccccc1N=C2N1CCN(C)CC1: -0.13

Single results of other studies
COc1ccc2c(c1)O[C@@H](c1ccc(OC)c(OC)c1)C[C@H]2NC(=O)C1(c2ccc3c(c2)OC(F)(F)O3)CC1 (single isomer, unassigned)
Ki (Sigma intracellular receptor 2 (TMEM97, Homo sapiens, UniProt Q5BJF2); binding; off-target scan): 584 nM

Some of these lines once more (series 4):
CC1=NS(=O)(=O)c2cc(Cl)ccc2N1: 0.0187
CC(C)(C)NC(=O)[C@@H]1CN(Cc2cccnc2)CCN1C[C@@H](O)C[C@@H](Cc1ccccc1)C(=O)N[C@H]1c2ccccc2C[C@H]1O: 0.23
